Results pooled from the literature.
Every numbered part comes from another study and shows a few of its results, in no order. Substitutions count along the parent as printed.

Study 1
Target: RNA binding protein fox-1 homolog 2, RRM domain, GST-SBP tag (RBFOX2, Homo sapiens, UniProt O43251-10, residues 100-194)
Technique: RNA Bind-n-Seq
Molecule type: RNA
Sample: in vitro
Concentration: 365 nM
Notes: natural RNA segment, single round, ends assumed
Reference: no-protein control
Direction: higher = stronger binding
Shared flanks, not repeated: GGGAGUUCUACAGUCCGACGAUC … UGGAAUUCUCGGGUGCCAA
Under “RBNS enrichment (R)”, `UGAAGAAAUCUCAAGCUCCCAAUUUUGGUUGCACUUUACGAACAUGCUCACUUCGUUAGCAUUUCUGAGCCAGAGGCUGGCUCCCUCCCGUGGGGAUCUGGGAGCUGGCA` is recorded as 0.382.
`GGCUGGAAAAGGCCGUUUGCCUCACACAUUGUAACCUGCCUUGGCUAGAAAAUGCUUUUAAUGUCUCAACUCUCUCUUUUCUGUGUCAUGUUUUGGUAGGAAAUCUUUAA` — result for “RBNS enrichment (R)”: 0.388.
Under “RBNS enrichment (R)”, `AUUCUACAUACUAAAUCUCUCUCCUUUUUUAAUUUUAAUAUUUGUUAUCAUUUAUUUAUUGGUGCUACUGUUUAUCCGUAAUAAUUGUGGGGAAAAGAUAUUAACAUCAC` is recorded as 0.604.
Under “RBNS enrichment (R)”, `UCAUUAGAAUUGAAUUCAGUUUCUCUUAGAAUAUAAUCAGGUAUAAACCUAAGUUAAACUUUUUCCCAAACAAGGAGCAUCCAAAGACACAGUGACUUGAGCUAUAGAUA` is recorded as 0.582.
`AUUUUGUGUUCUUUAGUUCUCCUUAAAAGAACUUUUGAAUUAUAAAAAUAAAAUCUUUACCUGUCGAAUUGUUGCUGCAGAUGAUUGUUGUGGAAAAUCUGGAUCAUUGA`: “RBNS enrichment (R)” 1.02.
For `GCUUCUUUGUGUGUCACCUUGCUUCCACGUUUCAGUUCUUGUUUUGUUUCUACUGCUUUAGUUUUUUUUAAAGUUCUCCAGUGUCCCCAAGAGGUAUUAGAAUCUUGCUG`, “RBNS enrichment (R)” read 1.72.
For `GUAGAAUAUACUAAUAAUCUGUGCCAACUCUACCUUCCCACUUUUACCUCUGACAUCAUUCUUUUUUUCUGAAAGGGGUAAUAAUUCUAGUUUUGAUAGACUCUGAGGAU`, “RBNS enrichment (R)” read 0.376.
Under “RBNS enrichment (R)”, `AAAUUAUGCAAUCACCAUAACUUUGUAACUCCUGAGUGUCCUAAGGGAGUACACAUCUUUGAAGCUGAUUUGUUGAUACUCGUGUAAUAAAUGGUUAAAUAUCAAAUGCU` is recorded as 1.02.

Study 2
Target: CCND1, cyclin fold, Cln2 fusion (human)
Technique: yeast growth competition, sequencing
Sample: yeast
Notes: weak parent motif
Reference: not given
Direction: higher = stronger binding
Starting sequence: SLBP docking peptide (human); ARYKRKLLINDFG
`G13K`: “normalised enrichment score” 0.136.
Under “normalised enrichment score”, `K4W` is recorded as 0.881.
`K4D`: “normalised enrichment score” 0.0461.
For `F12M`, “normalised enrichment score” read -0.393.
`D11Y`: “normalised enrichment score” 0.993.

Study 3
Target: Histone acetyltransferase KAT6A, winged helix 2, GST fusion (KAT6A, Homo sapiens, UniProt Q92794, residues 85-181)
Technique: protein binding microarray
Molecule type: double-stranded DNA, one strand shown
Sample: in vitro
Concentration: not given
Notes: 8-mer, flanks averaged, mean of 2 arrays, mostly near background
Reference: not given
Direction: higher = stronger binding
Construct (chain): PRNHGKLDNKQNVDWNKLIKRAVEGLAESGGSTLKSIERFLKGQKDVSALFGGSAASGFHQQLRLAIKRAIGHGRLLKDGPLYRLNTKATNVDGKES
`GCCGGTGA` has an E-score of 0.0324.
With `CGTAGTGA` the E-score was -0.0736.
`ATGCAGGA` gave an E-score of -0.269.
With `GCTCTTCC` the E-score was 0.127.
With `CCAGGAGG` the E-score was 0.0785.
The E-score of `ATCTGCCA` is reported as -0.00297.
`GCTTGCGA` gave an E-score of 0.319.
`CACGACGC` gave an E-score of 0.0703.

Further values, each from its own experiment
`PhoQ, residues 284 288 289 292 302 303 SNGLAW` gave a fold induction of 4.91 (PhoP, residues 12 14 15 18 19 AWHSL (Escherichia coli, UniProt P23836); Sort-seq, refers to: YFP reporter; E. coli; PhoQ-PhoP variant library, added: 10 µM Mg2+; reference: high Mg2+ state, higher = stronger signaling).

Some of these lines once more (study 3):
The E-score of `ATCTGCCA` is reported as -0.00297.
With `GCTCTTCC` the E-score was 0.127.
